Results pooled from the literature.
Numbers after ± are the reported error.
STING1 H232R: Stimulator of interferon genes protein (STING1, Homo sapiens, UniProt Q86WV6, H232R)
Sequence of UniProt Q86WV6 (whole entry, unmodified, looked up): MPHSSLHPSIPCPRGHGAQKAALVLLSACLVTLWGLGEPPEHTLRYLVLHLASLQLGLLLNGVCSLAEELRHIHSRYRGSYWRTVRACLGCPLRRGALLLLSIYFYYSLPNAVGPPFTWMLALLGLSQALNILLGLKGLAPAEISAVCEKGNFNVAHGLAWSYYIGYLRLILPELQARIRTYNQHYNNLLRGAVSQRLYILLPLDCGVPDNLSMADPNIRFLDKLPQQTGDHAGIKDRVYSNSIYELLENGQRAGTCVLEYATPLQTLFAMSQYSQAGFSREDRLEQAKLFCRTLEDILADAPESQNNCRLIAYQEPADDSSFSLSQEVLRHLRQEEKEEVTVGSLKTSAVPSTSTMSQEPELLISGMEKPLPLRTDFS
Sequence of UniProt P80192 (whole entry, looked up): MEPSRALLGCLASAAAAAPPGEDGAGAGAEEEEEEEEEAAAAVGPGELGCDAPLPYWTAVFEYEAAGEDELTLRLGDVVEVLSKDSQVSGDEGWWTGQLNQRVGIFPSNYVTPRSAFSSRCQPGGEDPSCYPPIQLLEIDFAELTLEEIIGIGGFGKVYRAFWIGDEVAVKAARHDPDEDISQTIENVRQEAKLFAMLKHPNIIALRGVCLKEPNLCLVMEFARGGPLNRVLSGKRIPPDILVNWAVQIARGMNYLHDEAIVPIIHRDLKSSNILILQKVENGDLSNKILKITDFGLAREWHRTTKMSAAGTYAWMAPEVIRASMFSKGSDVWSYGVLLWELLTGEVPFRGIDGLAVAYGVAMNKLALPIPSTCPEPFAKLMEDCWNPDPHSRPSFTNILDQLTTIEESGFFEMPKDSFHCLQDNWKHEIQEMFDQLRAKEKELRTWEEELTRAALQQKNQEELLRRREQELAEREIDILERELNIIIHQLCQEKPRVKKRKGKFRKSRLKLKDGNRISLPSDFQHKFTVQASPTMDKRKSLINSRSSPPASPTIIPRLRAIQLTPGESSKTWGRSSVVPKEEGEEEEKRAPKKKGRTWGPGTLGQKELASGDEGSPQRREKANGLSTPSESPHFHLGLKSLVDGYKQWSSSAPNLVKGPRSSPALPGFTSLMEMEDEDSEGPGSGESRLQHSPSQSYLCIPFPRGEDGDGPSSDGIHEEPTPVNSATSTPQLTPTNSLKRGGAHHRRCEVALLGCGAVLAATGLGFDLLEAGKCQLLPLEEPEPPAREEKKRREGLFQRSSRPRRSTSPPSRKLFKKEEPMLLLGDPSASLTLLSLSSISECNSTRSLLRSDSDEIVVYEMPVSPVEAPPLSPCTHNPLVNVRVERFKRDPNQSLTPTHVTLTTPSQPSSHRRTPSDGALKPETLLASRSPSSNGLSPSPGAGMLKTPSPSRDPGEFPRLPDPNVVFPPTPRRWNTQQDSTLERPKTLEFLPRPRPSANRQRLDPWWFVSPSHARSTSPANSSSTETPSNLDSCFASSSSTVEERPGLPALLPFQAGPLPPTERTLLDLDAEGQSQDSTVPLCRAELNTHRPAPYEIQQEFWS
Sequence of UniProt Q9SZU7 (whole entry, unmodified, looked up): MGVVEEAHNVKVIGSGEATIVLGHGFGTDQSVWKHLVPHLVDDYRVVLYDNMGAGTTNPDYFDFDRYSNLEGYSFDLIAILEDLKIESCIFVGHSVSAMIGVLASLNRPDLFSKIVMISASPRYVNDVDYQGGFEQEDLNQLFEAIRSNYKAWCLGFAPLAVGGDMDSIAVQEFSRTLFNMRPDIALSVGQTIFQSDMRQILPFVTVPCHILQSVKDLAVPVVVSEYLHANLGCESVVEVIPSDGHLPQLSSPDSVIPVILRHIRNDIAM

`Cc1cccc2c1N(C(=O)n1ccnn1)CC2` has a Kd of 38900 nM (KAI2 (Arabidopsis thaliana, UniProt Q9SZU7, I193A); ITC; I193A mutant, mean).
`CC(C)=CCc1cc(C(=O)/C=C/c2ccc(O)cc2)c(O)cc1O`: “substrate inhibition constant” 37.1 ± 6.86 µM (phase I metabolism, substrate; human liver microsomes; together with: NADPH).
With `O=C(N[C@@H](CCCCNC(=O)c1ccc([N+](=O)[O-])o1)c1nc2ccccc2[nH]1)c1ccc(-c2nccs2)cc1` the EC50 was 10400 nM (STING1 H232R; reporter gene, inhibitor; THP1-Dual KI-hSTING-R232; 24 h, 1 h preincubation, together with: diABZI 500 nM).
For `O=C(O)C(Cc1c[nH]cn1)N1C(=O)c2ccc3c4ccc5c6c(ccc(c7ccc(c2c37)C1=O)c64)C(=O)N(CCN1CCCCC1)C5=O` (stereo not shown), the DC50 was 660 ± 140 nM (human telomeric G-quadruplex DNA; binding, thiazole orange displacement; pH 8).
The EC50 of `N=C(NCC[C@H](NC(=O)c1noc(-c2cc(F)ccc2F)n1)c1nc2ccccc2[nH]1)c1ccc([N+](=O)[O-])o1` is reported as 1700 nM (STING1 H232R; reporter gene, inhibitor; THP1-Dual KI-hSTING-R232; 24 h, 1 h preincubation, together with: diABZI 500 nM).
`[Cu+2].c1cc2nc(c1)CNCc1cccc(n1)CNC2` has an IC50 of 1550 nM (superoxide dismutase-like activity, McCord-Fridovich NBT; cell-free system; pH 7.8, together with: xanthine/xanthine oxidase).
The DC50 of `O=C(O)C(Cc1c[nH]cn1)N1C(=O)c2ccc3c4ccc5c6c(ccc(c7ccc(c2c37)C1=O)c64)C(=O)N(C(Cc1c[nH]cn1)C(=O)O)C5=O` (stereo not shown) is reported as over 2500 nM (human telomeric G-quadruplex DNA; binding, thiazole orange displacement; pH 8).
For `Cc1nn(-c2cccc(N)c2)c(=O)c2cnc(Nc3ccc(N4CCNCC4)cc3)nc12`, the IC50 was 1370 nM (MAP3K9 (Homo sapiens, UniProt P80192); enzyme activity, inhibitor).
With `CCc1c(C(=O)N[C@@H](CCNC(=O)c2ccc([N+](=O)[O-])o2)c2nc3ccccc3[nH]2)nnn1-c1ccc(C)cc1F` the EC50 was 3800 nM (STING1 H232R; reporter gene, inhibitor; THP1-Dual KI-hSTING-R232; 24 h, 1 h preincubation, together with: diABZI 500 nM).
With `COc1cc2nc(c1)CNCc1cc(OC)cc(n1)CNC2.[Cu+2]` the IC50 was 679 nM (superoxide dismutase-like activity, McCord-Fridovich NBT; cell-free system; pH 7.8, together with: xanthine/xanthine oxidase).
